Measured values pooled from the literature.
Each line is one published result; not all experiments were run side by side.
Target: Histone deacetylase 8 (HDAC8, Homo sapiens, UniProt Q9BY41)
Action: inhibitor
Sequence (Q9BY41 1-377, as in one of the studies): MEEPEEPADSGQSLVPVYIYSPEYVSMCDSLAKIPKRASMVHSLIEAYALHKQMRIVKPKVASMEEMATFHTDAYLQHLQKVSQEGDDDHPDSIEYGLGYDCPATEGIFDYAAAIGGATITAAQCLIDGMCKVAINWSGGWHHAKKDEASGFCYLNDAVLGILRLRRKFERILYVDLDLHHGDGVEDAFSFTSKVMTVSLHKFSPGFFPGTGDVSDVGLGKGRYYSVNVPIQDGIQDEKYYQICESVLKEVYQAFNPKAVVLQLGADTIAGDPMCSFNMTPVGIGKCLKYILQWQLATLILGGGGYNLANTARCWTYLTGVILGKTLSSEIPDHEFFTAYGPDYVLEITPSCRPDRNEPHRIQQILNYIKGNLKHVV

With `O=C(NO)c1cncc(OS(=O)(=O)Oc2ccc(Oc3ccccc3)cc2)c1` the Ki was 1230 nM (enzyme activity, fluorescence).
The Kd of `O=C(NO)c1cnc(NC2(c3cccc(F)c3)CCCCC2)nc1` is reported as > 30200 nM (competition pulldown; SW620 and MV4-11 lysate; 1 h).
For `Cc1c(COc2cc(OCc3cccc(C#N)c3)c(CN3CCCC[C@H]3C(=O)O)cc2Cl)cccc1-c1cccc(OCCCCCCC(=O)NO)c1`, the IC50 was > 1000 nM (enzyme activity).
With `Cc1cc(C(C)(C)C)ccc1OS(=O)(=O)Oc1cccc(/C=C/C(=O)NO)c1` the Ki was 4330 nM (enzyme activity, fluorescence).
With `O=C(CCc1ccc(CNC(C(=O)OC2CCCC2)C2CCCCC2)cn1)NO` (stereo not shown) the IC50 was 1120 nM (enzyme activity).
`CC(C)c1ccc(OS(=O)(=O)Oc2cncc(C(=O)NO)c2)cc1` gave a Ki of 586 nM (enzyme activity, fluorescence).
With `Cc1c(COc2cc(OCc3cccc(C#N)c3)c(CN3CCCC[C@@H]3C(=O)O)cc2Cl)cccc1-c1cccc(OCCCCCC(=O)NO)c1` the IC50 was > 1000 nM (enzyme activity).
With `CC[C@H](C)[C@@H]1NC(=O)[C@H](Cc2ccccc2C(F)(F)F)NC(=O)CCSCc2cccc(n2)CSCCCNC(=O)[C@H](CCCCCC(=O)NO)NC1=O` the Ki was 100 nM (enzyme activity, fluorescence).
`Cc1c(COc2cc(OCc3cccc(C#N)c3)c(CNC(C)(CO)CO)cc2Cl)cccc1-c1cccc(OCCCCCCC(=O)NO)c1` gave an IC50 of > 1000 nM (enzyme activity).
The Kd of `COc1ccc(C(=O)NO)cc1NC(=O)c1ccc(-c2ccccc2)cc1` is reported as > 30200 nM (competition pulldown; SW620 and MV4-11 lysate; 1 h).
